Assay results collected from several papers.
Each numbered part is a random draw from the data of one study; scales do not carry over between parts. Positions count from the first letter of the parent shown.

Set 1
Target: ABI1, truncated, D143A, DHFR fusion (Arabidopsis thaliana)
Technique: DHFR PCA, deep sequencing
Sample: yeast
Setting: methotrexate growth selection, single substitutions
Together with: (+)-ABA 58 µM
Relative to: wild-type fitted maximum
Reading: higher = stronger binding
Endpoint: relative binding score
Parent: PYL1, truncated, DHFR fusion (Arabidopsis thaliana); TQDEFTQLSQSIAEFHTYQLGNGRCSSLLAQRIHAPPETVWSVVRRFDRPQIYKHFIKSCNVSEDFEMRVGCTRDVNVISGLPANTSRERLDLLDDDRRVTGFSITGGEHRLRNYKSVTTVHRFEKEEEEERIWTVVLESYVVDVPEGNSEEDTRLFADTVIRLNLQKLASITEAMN
R111P: 16.4%
H55V: 93.8%
S117V: -13.4%
R163A: 66.3%
A175S: 82.9%
L93W: 69.6%
S80P: 20%
I79Q: 90.6%
L94N: 19.5%
W134E: 99%
S42C: 79.6%
I57K: -0.494%
F124G: 75.8%
S117T: 5.7%
V44D: -27.4%
L164V: 85.5%
N149K: 21%
Q7D: 88.3%
V145Q: 42.8%
H16L: -3.97%
V136D: 19.7%
D96F: 18.4%

Set 2
Target: Histone acetyltransferase KAT6A, winged helix 2, GST fusion (KAT6A, Homo sapiens, UniProt Q92794, residues 85-181)
Technique: protein binding microarray
Molecule type: double-stranded DNA, one strand shown
Sample: in vitro
Concentration: not given
Setting: 8-mer, flanks averaged, mean of 2 arrays, mostly near background
Relative to: not given
Reading: higher = stronger binding
Endpoint: E-score
Target sequence (chain): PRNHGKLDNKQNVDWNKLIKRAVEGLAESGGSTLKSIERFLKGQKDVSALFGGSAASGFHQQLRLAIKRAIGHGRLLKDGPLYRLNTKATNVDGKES
ACCCAAGC: -0.128
CAATGCCG: 0.0638
AGTTCGTG: 0.114
AACTGCTC: -0.0572
GTAGTACA: -0.174
GGCTGAAA: 0.249
CTGGAATC: -0.172
TGGAAAAA: 0.0398
GGTGGCAC: 0.0785
GCAGTACC: 0.0844
CGAACGAA: -0.0112
GATCTGCC: 0.0741
CCCATTTC: -0.211
AGGAACGG: -0.0347
ACAAGCGG: -0.0419
GTGAGGGA: 0.201

Set 3
Target: Transcriptional repressor CTCF (CTCF, Homo sapiens, UniProt P49711, residues 1-727, full length assumed)
UniProt P49711, sequence (whole entry, looked up): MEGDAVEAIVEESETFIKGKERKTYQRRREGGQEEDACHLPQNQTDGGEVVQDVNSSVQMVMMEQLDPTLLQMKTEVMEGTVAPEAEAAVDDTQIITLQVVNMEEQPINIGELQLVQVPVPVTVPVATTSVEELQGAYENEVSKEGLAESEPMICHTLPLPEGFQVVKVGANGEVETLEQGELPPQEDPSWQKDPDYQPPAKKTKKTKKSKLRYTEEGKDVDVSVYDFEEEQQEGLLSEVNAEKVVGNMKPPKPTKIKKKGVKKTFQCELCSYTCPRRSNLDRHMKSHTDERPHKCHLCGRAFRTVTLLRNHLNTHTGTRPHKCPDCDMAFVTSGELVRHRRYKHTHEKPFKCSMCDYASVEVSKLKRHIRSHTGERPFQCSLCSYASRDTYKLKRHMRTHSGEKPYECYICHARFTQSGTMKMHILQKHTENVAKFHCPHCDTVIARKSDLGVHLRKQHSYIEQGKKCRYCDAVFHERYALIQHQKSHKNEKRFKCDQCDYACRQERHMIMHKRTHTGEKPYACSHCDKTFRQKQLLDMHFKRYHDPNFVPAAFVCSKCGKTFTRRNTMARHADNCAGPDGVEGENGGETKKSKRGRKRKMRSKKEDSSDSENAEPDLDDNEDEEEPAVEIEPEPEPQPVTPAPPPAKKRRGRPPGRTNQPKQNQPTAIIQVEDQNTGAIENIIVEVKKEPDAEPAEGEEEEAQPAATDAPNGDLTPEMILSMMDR
Technique: protein-binding microarray
Molecule type: double-stranded DNA, one strand shown
Sample: in vitro
Concentration: not given
Setting: k-mer, scored over probes, only values ≥0.25
Reading: higher = stronger binding
Endpoint: E-score
CGCGCGTC: 0.311
TTAATTAA: 0.283
CGAATAAC: 0.266
ATGTTGTA: 0.298
GCGCATTA: 0.411
ATATATTA: 0.403
GAATTTTA: 0.28
CGTGGCGC: 0.372
AGTAGCGC: 0.334
GTACATTA: 0.277
AATAACAC: 0.294
CATTTATA: 0.296
GAGTAATA: 0.32
GCGCAAGA: 0.277
AATGTAAT: 0.294
CCCTAGGG: 0.336
TATGCGCA: 0.422
GATATTAC: 0.267
CATTACAA: 0.304
TAAAAAAA: 0.28
ATACTCAC: 0.274
AATTAACT: 0.319
ATATATGA: 0.283
GCGCCACA: 0.38
GTGTATAA: 0.315

Set 4
Target: Fragile X messenger ribonucleoprotein 1, C-terminal low-complexity region (Fmr1, Mus musculus, UniProt P35922)
Technique: RNA Bind-n-Seq
Molecule type: RNA
Sample: in vitro
Concentration: 200 nM
Setting: whole 134-nt RNA, ends assumed
Together with: 150 mM LiCl
Relative to: input library
Reading: higher = stronger binding
Endpoint: log2 enrichment
Library: 7-deaza-guanosine replaces G
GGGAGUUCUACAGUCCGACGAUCGUCCUGUGCUACACAUCGUAUGUACCGAAUCGGGAAAAAAAGGGUUUUUGGGAAAGGGAAAGUAUUAUGUUACGCCGUUCGGAUCUGCACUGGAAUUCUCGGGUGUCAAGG: -1.85
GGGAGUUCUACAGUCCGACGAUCCACAGACAACACGCACCCACACAGACACAGAGGGAAGGGGUUGGGAGGGGGACAGGGUGCACAGCAGGGCGGGGUAGGACCCCAGCCCCUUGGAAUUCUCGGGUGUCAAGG: 1.05
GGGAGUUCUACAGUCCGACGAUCUUAAAGUAGAGGAACAAAAAGAAGAACAGAAGGAGUUAGAGAAAUCUGAAAAAGAAGAGGAUGAGGAUGAUGAUAGGAAAUCUGAAGACGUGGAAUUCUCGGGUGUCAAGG: -0.23
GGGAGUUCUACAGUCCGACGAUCUCAAGUCCUGUGCUACACAUCGUAUGUACCGAAUCGGGUUGGGGUUGGUUGGGGAAAGUAUUAUGUUACGCCGUUCGGAUCUGCACUUCCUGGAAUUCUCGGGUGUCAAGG: -0.29
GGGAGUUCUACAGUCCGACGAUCCAAGUCCUGUGCUACACAUCGUAUGUACCGAAUCGGCCCCGGCCCCGGGGCCCCGGAAAGUAUUAUGUUACGCCGUUCGGAUCUGCACUUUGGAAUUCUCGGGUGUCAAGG: -3.09
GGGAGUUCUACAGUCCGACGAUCCUCAAGUCCUGUGCUACACAUCGUAUGUACCGAAUCGGAAAGGAAAGGUUUGGAAAGUAUUAUGUUACGCCGUUCGGAUCUGCACUUCCAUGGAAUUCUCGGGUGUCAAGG: -0.769
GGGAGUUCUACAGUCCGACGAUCAAGUCCUGUGCUACACAUCGUAUGUACCGAAUCGGGAAAAGGAAAAGGGAAAAGGGAAAGUAUUAUGUUACGCCGUUCGGAUCUGCACUUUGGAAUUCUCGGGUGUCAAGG: -0.643
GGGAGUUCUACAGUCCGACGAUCACCAUGCAGGUGGGCAUCUUUGGGAAGUGGGGCAAGGGUGGGAUAGGGAGGGGGGUAACACUUUGGGAACAGGUGGUCCCAGGUCGUUUCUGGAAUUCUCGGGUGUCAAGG: 0.97
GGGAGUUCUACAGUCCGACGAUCUGGGAGGUGGAUUUUGUUUAUUUUUUUAGCUCAUUUCCAGGGGUGGGAAUUUUUUUUUAAUAUGUGUCAUGAAUAAAAUUGUUUUUGAAAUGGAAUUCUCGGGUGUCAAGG: -0.0406
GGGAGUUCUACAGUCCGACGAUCUCAAGUCCUGUGCUACACAUCGUAUGUACCGAAUCGGGUUUGGUUUGGGUUUGGGAAAGUAUUAUGUUACGCCGUUCGGAUCUGCACUUCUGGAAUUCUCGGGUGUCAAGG: -2.19
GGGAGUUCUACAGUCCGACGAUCCUGUGCUACACAUCGUAUGUACCGAAUCGGGGUUUGGGGAAAAAAAGGGGAAAAAAAGGGGAAAGUAUUAUGUUACGCCGUUCGGAUCUGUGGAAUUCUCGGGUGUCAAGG: 1.05

Set 5
Target: CCNA1, cyclin fold, Cln2 fusion (human)
Technique: yeast growth competition, sequencing
Sample: yeast
Setting: weak parent motif
Relative to: not given
Reading: higher = stronger binding
Endpoint: normalised enrichment score
Parent: WEE1 docking peptide (human); HKTFRKLRLFDTP; partner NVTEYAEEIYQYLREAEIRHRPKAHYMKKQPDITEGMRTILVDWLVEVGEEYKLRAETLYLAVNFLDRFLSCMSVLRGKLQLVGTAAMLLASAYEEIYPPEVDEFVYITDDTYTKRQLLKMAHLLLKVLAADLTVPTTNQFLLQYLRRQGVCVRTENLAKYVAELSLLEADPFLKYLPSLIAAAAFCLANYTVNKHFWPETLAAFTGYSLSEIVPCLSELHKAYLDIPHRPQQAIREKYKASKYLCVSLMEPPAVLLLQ
HKTFRKLRAFDTP [L9A]: 0.354
HKTFRKHRLFDTP [L7H]: 0.127
HKTFRKLRLFDIP [T12I]: 0.538
HKTNRKLRLFDTP [F4N]: 0.298
HKTFRKLRSFDTP [L9S]: 0.667
HKFFRKLRLFDTP [T3F]: -0.141
HKTFRKLRLFDAP [T12A]: 0.138
HKTFLKLRLFDTP [R5L]: 0.332
HKTFRKLRLFDPP [T12P]: 0.165
HKTSRKLRLFDTP [F4S]: 0.0429
HKTGRKLRLFDTP [F4G]: 0.296
HKTFRKLRLFDCP [T12C]: 0.228
HKTFRKLRLFHTP [D11H]: -0.525
HKTERKLRLFDTP [F4E]: 0.194
HKTFRKLNLFDTP [R8N]: 0.085
HKTFRKLRLGDTP [F10G]: 0.181
HKTFRKLRLFDTD [P13D]: 0.336
HKTFRKLLLFDTP [R8L]: -0.0536
HKVFRKLRLFDTP [T3V]: 0.578
HKTFRKLRLFDTF [P13F]: 0.116
HKTFRKLRLFDRP [T12R]: 0.338
HKTFRKLRLFLTP [D11L]: 0.228
HKTFRKLRCFDTP [L9C]: 0.278
HNTFRKLRLFDTP [K2N]: 0.393
HKTFRKLYLFDTP [R8Y]: 0.712

Set 6
Target: Interferon regulatory factor 5, full length, phosphomimetic (IRF5, Homo sapiens, UniProt Q13568-2, residues 1-514, K96S/S451D/S453D/S456D/S462D)
Technique: protein-binding microarray
Molecule type: double-stranded DNA, one strand shown
Sample: in vitro
Concentration: 250 nM
Setting: 60-bp whole probe
Together with: salmon DNA 0.4 mg/ml
Relative to: random background probes
Reading: higher = stronger binding
Endpoint: log fluorescence
All sequences stand within: GCCTAGCAC … GTCTTGATTCGCTTGACGCTGCTG
GACGGTCTCGGTATCGTGACGTGCTAG: 0.375 z-score
GACGGTTTCGACTATCGGGAGGTGCTA: 7.21 z-score
TCAAATCTCAGCCTCCGACTGTGCTAG: -0.0124 z-score
TCATTTATATGCTATGTAACTGTGCTA: 0.753 z-score
GACGATTTCGGTTATCGAGACGTGCTA: 7.85 z-score
TCATTTTTTCTAATTGAACTGTGCTAG: 1.22 z-score
TGAGCATACCATATCAGAAAGTGCTAG: 0.523 z-score
CCCCTCTTCTGGATCTCAGAGTGCTAG: -0.362 z-score
GACGGACTGGGACTGGGGTCGTGCTAG: -0.28 z-score
TGGAGCCTAAGGTTTAGGCTCGTGCTA: -0.176 z-score
TCATCTATTGCTTTCTCACTGTGCTAG: 1.24 z-score
CAAACACTGGTTTTTACTTTGTGCTAG: 0.451 z-score
GACGGTATCGGTATCGGGGCGTGCTAG: 6.04 z-score
TTAGTTATCCTTCTCCTTTAGTGCTAG: 0.486 z-score
TCACGGCTCTAAACTCATACTGTGCTA: -0.0997 z-score
TTGGGTATCGACACTGGGTTAGTGCTA: 2.24 z-score
TCACATTTCACAGTTAAACTGTGCTAG: 1.07 z-score

Single results of other studies
SRP14 (Homo sapiens, UniProt P37108) — interaction screen (SRP9 (Homo sapiens, UniProt P49458); cross-linking MS; hits only): cross-linked
PhoQ, residues 284 288 289 292 302 303 SSLVEF — fold induction (PhoP, residues 12 14 15 18 19 SMASL (Escherichia coli, UniProt P23836); Sort-seq, item: YFP reporter; E. coli; PhoQ-PhoP variant library, together with: 10 µM Mg2+; relative to: high Mg2+ state, higher = stronger signaling): 9.13
VPS11 (Homo sapiens, UniProt Q9H270) — interaction screen (VPS18 (Homo sapiens, UniProt Q9P253); cross-linking MS; hits only): cross-linked
ARHGEF11 (Homo sapiens, UniProt O15085) — cross-linked residues (TRDN (Homo sapiens, UniProt Q13061); cross-linking MS; cell fractions; together with: DMTMM): E529 to K336
NUP43 (Homo sapiens, UniProt Q8NFH3) — interaction screen (SEH1L (Homo sapiens, UniProt Q96EE3); cross-linking MS; hits only): cross-linked
